# Experimental data gathered from unrelated publications.
# Protocols differ between the studies behind these lines. Several values in a cell are separate wells, animals, samples, runs or records. ± marks the error that the study gave.
# PARP1: Poly [ADP-ribose] polymerase 1 (PARP1, Homo sapiens, UniProt P09874)
# Chain of UniProt P09874 (whole entry, looked up): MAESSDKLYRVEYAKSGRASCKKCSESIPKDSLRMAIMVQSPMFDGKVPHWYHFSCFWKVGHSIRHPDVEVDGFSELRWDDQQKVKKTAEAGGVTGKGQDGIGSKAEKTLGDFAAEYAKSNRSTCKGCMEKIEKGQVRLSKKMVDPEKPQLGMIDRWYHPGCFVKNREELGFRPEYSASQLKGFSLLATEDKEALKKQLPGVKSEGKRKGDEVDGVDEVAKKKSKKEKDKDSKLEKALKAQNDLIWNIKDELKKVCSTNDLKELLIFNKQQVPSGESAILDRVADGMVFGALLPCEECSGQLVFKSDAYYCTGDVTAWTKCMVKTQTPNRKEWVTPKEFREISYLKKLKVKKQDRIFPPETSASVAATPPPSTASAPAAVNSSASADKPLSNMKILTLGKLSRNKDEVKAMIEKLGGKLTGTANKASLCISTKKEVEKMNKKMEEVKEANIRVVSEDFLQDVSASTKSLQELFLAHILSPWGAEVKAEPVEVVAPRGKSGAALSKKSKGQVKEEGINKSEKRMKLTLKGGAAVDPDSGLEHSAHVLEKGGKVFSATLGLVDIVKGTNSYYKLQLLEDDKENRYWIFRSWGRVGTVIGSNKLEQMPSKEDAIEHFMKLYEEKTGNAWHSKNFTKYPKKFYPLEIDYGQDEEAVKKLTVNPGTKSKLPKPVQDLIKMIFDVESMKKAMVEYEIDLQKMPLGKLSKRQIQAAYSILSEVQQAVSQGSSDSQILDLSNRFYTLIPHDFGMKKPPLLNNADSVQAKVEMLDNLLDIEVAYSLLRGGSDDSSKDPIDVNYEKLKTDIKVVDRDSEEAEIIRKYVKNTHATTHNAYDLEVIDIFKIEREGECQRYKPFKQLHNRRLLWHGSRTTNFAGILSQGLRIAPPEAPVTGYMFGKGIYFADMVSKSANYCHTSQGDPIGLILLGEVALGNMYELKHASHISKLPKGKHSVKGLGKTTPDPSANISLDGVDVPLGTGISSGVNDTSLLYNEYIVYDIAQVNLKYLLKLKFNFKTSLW
# ABCC1: Multidrug resistance-associated protein 1 (ABCC1, Homo sapiens, UniProt P33527)
# Grin1/Grin2a: Glutamate NMDA receptor; Grin1/Grin2a (Grin1/Grin2a, Rattus norvegicus, UniProt P35439+Q00959)
# FAAH: Fatty-acid amide hydrolase 1 (FAAH, Homo sapiens, UniProt O00519)
# Chain of UniProt O00519 (whole entry, looked up): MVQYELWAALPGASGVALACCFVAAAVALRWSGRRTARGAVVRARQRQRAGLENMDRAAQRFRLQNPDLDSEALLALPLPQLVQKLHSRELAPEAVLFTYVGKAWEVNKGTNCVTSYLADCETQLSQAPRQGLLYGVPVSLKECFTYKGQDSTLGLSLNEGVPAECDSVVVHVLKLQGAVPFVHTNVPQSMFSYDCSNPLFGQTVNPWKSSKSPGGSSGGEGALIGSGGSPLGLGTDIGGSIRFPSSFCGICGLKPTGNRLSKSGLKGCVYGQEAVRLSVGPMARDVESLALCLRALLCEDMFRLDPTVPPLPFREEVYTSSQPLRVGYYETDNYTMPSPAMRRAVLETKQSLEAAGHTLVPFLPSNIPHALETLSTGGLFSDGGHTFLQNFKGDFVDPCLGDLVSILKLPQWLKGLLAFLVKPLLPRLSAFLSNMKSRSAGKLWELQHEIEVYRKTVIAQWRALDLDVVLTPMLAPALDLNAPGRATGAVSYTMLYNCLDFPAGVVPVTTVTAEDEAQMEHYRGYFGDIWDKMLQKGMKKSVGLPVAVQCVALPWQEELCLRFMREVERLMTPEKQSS
# CXCR4: C-X-C chemokine receptor type 4 (CXCR4, Homo sapiens, UniProt P61073)
# Chain of UniProt P61073 (whole entry, looked up): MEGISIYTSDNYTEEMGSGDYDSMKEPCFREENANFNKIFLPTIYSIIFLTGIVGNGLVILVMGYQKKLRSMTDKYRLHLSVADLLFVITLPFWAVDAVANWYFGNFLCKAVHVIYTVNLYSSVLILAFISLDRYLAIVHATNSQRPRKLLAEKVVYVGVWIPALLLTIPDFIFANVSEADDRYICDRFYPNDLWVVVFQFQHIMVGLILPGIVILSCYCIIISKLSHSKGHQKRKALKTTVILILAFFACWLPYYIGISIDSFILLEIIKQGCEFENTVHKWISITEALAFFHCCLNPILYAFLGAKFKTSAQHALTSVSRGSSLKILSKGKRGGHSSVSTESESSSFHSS
# DPP4: Dipeptidyl peptidase 4 (DPP4, Homo sapiens, UniProt P27487)
# Chain of UniProt P27487 (whole entry, looked up): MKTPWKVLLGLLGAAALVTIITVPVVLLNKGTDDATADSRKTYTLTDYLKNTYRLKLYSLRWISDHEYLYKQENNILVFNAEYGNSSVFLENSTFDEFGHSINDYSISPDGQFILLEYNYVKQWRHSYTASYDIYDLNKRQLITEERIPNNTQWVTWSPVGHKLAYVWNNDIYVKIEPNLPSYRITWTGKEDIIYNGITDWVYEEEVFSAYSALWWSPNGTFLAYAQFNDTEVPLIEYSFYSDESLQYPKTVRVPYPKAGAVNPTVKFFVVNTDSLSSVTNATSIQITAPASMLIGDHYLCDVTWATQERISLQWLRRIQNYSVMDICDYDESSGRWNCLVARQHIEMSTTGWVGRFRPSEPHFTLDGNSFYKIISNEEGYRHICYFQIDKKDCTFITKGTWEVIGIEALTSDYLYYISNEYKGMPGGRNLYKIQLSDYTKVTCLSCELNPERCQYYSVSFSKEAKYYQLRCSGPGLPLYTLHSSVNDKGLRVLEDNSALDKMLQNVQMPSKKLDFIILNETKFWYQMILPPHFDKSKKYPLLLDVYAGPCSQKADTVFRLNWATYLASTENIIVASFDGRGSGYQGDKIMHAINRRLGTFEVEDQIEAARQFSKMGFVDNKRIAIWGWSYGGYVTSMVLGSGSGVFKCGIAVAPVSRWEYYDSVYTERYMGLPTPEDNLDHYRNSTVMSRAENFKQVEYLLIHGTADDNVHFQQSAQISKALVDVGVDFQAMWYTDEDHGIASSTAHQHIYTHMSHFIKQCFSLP
# CYP1A1: Cytochrome P450 1A1 (CYP1A1, Homo sapiens, UniProt P04798)
# Chain of UniProt P04798 (whole entry, looked up): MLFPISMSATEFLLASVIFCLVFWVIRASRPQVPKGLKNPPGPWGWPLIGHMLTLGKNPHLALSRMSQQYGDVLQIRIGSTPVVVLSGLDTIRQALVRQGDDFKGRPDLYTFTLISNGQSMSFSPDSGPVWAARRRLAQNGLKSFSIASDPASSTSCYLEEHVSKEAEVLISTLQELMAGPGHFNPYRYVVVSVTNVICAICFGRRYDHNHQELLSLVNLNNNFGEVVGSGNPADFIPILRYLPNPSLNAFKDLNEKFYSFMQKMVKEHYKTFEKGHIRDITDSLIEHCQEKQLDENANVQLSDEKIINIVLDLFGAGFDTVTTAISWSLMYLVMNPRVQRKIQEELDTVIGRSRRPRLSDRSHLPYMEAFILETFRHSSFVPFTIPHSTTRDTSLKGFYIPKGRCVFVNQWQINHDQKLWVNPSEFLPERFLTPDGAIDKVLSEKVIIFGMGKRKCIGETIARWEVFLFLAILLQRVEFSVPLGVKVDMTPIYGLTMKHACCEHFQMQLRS
# Chain of UniProt Q99808 (whole entry, looked up): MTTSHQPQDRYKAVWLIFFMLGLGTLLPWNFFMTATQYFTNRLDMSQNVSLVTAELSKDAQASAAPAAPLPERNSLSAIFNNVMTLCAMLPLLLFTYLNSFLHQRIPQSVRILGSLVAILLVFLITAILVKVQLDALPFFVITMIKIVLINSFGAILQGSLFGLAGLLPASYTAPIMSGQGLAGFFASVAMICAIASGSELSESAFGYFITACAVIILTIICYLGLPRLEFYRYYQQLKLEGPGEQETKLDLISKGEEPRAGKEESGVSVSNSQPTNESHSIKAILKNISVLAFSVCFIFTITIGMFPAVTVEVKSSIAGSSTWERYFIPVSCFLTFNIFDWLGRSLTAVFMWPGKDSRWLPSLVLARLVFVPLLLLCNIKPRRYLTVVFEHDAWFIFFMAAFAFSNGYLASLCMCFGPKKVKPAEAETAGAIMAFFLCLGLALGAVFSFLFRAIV
# Chain of UniProt P49841 (whole entry, looked up): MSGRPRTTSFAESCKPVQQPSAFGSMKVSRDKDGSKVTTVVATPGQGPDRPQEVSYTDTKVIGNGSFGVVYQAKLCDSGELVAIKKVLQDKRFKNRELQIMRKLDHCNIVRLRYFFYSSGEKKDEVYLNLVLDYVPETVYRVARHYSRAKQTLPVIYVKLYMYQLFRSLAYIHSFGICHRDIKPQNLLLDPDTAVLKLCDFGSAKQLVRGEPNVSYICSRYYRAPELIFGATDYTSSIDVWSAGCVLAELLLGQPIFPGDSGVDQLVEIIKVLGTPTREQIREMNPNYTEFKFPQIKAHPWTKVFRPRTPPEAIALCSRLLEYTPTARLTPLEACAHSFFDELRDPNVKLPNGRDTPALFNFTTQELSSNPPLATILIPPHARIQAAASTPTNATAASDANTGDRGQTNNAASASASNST
# Chain of UniProt Q9UBY5 (whole entry, looked up): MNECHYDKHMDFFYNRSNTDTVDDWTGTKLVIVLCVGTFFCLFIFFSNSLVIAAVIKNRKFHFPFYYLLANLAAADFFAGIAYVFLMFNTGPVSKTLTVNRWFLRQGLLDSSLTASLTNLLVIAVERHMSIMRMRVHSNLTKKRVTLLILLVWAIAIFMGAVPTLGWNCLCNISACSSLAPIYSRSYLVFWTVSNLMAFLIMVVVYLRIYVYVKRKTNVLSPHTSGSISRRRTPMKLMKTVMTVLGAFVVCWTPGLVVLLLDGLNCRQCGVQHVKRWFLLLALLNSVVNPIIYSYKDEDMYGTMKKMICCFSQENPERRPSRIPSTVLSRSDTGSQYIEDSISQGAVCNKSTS
# Chain of UniProt Q96P56 (whole entry, looked up): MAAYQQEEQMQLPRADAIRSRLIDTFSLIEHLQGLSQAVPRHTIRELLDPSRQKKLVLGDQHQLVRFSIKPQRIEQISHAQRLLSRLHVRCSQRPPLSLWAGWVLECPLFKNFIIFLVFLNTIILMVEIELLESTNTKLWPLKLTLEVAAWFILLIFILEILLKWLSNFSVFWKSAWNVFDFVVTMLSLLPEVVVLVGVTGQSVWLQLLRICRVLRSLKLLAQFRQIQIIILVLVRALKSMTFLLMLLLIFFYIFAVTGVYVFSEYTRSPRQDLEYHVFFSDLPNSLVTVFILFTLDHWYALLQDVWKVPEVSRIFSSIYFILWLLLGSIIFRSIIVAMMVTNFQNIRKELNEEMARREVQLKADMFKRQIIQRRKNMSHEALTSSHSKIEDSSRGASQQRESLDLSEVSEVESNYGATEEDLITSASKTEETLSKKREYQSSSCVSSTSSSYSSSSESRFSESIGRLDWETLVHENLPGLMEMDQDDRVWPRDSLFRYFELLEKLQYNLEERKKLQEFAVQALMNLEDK
Molecule,target or system,test,test system,setting,quantity,result
insulin icodec,"Insulin receptor, isoform B (INSR, Homo sapiens, UniProt P06213)","binding, competitor, scintillation proximity",solubilized receptor,HSA 0%,IC50,0.00313 µM
COc1ccccc1NC(=O)CSc1nnc(-c2cc3cccc(OC)c3o2)n1-c1ccccc1,fungal tyrosinase,"enzyme activity, inhibitor, dopachrome absorbance",,"pH 6.8, 37 °C, added: L-tyrosine substrate",IC50,0.39 ± 1.45 µM
COC(=O)c1ccc(NC(=O)CNNc2nc3ccccc3c(=O)n2-c2ccccc2)cc1,PARP1,enzyme activity,,,IC50,0.0408 µM
Cn1ncc(Nc2ccc3c(c2)CCN(CCCCCNC(=O)COc2cccc4c2C(=O)N(C2CCC(=O)NC2=O)C4=O)C3)c(Cl)c1=O (stereo not drawn),"Nucleosome-remodeling factor subunit BPTF, bromodomain (BPTF, Homo sapiens, UniProt Q12830)","binding, AlphaScreen",,"bromodomain, added: H4 acetylated peptide, 100 nM",IC50,0.024 ± 0.009 µM
COC(=O)C1=C(C)NC(C)=C(C(=O)OCCN(C)Cc2ccccc2)C1c1cccc([N+](=O)[O-])c1 (stereo not drawn),ABCC1,"substrate efflux, inhibitor, flow cytometry",ABCC1-overexpressing SupT1-Vin cells,added: BODIPY-FL-thapsigargin 100 nM,IC50,0.6 µM
Cc1ccc(NC(=S)N2CCN(CC(O)COc3ccccc3C(=O)c3ccccc3)CC2)cc1 (stereo not drawn),"ABCB1 (Homo sapiens, UniProt P08183)","daunorubicin efflux, inhibitor",CCRF-CEM vcr 1000 multidrug resistant,added: daunorubicin,IC50,9.48 µM
[Zn+2],Grin1/Grin2a,,,pH 7.3,IC50,0.05 µM
COC(=O)c1ccccc1NC(=O)C(C)Sc1nnc(Cc2c[nH]c3ccccc23)o1 (stereo not drawn),alpha-glucosidase,enzyme activity,,added: p-nitrophenyl glucopyranoside,IC50,25.78 ± 0.05 µM
COc1ccc(C(=O)OCc2ccccc2)cc1,FAAH,"enzyme activity, inhibitor, fluorescence",,with preincubation,IC50,> 100 µM
O=C(Nc1cc(F)c(F)c(F)c1)c1cc(S(=O)(=O)N2CCOCC2)c(Cl)cc1Cl,"LPAR3 (Homo sapiens, UniProt Q9UBY5)","Ca2+ mobilization, antagonist",RH7777,added: LPA at EC50,IC50,> 100 µM
c1nc2c(NCc3ccc(CNCCCNC4CCCCC4)cn3)nc(N3CCNCC3)nc2[nH]1,CXCR4,"ligand displacement, radioligand",,cell membranes,IC50,0.0459 µM
CN(C)c1cc2c(Nc3ccc4c(cnn4Cc4ccccc4)c3)ncnc2cn1,"FLT1 (Homo sapiens, UniProt P17948)",,,,IC50,> 10 µM
Cn1c(=O)c(=O)n(C)c2cc(S(=O)(=O)Nc3ccccc3S)ccc21,DPP4,"enzyme activity, inhibitor, fluorescence",,,IC50,0.00067 µM
CCN(CC)CCOc1ccc(NS(=O)(=O)c2ccc(CN3CCCCC3)cc2)cc1,CXCR4,"binding, inhibitor, competition binding",MDA-MB-231,,IC50,0.021 µM and 0.0211 µM
CC(C)NCc1ccc(C[C@@H]2NC(=O)[C@@H](N(C)C(=O)c3ccc4ccccc4c3)NC(=O)[C@H](Cc3ccccc3)NC(=O)[C@H](N)CSSC[C@@H](C(=O)N[C@@H](Cc3ccc4ccccc4c3)C(N)=O)NC(=O)[C@H](Cc3ccccc3)NC2=O)cc1,"SSTR3 (Homo sapiens, UniProt P32745)","ligand displacement, radioligand",,cell membranes,IC50,0.112 µM
Cn1c(=O)c(=O)n(C)c2cc(S(=O)(=O)Nc3ccc(C(=O)O)cc3)ccc21,DPP4,"enzyme activity, inhibitor, fluorescence",,,IC50,0.00074 µM
CCOc1ccc2cc(-c3nn(CC4CCN(C)CC4)c4ncnc(N)c34)ccc2c1,CDPK1 (Sarcocystis neurona),"kinase activity, inhibitor, Kinase-Glo",,"90 min, 30 °C, added: 10 µM ATP",IC50,0.006 µM
COc1ccc2nc(NCc3ccc(CNCCCNC4CCCCCC4)cc3)nc(NC3CCNCC3)c2c1,CXCR4,"ligand displacement, radioligand",,cell membranes,IC50,~0.01 µM and 0.0079 µM
O=P(O)(O)OC(CO)CO,"Protein phosphatase EYA2 (Homo sapiens, UniProt O00167)",,,,IC50,8200 µM
COc1ccc(-c2cc(=O)c3c(OC)c([C@@H]4O[C@H](C(=O)NCCCF)[C@@H](O)[C@H](O)[C@H]4O)c(OC)cc3o2)cc1OC,"GSK3B (Homo sapiens, UniProt P49841)","enzyme activity, inhibitor, ADP detection",,,IC50,49.5 µM
COc1cc(/C=C/C(=O)O)ccc1O,"Cell division cycle 7-related protein kinase, with DBF4 (CDC7, Homo sapiens, UniProt O00311)","enzyme activity, inhibitor, ADP-Glo luminescence",,added: ATP 12.5 µM,IC50,13.2 ± 3.9 µM
COc1ccc(-c2ccc3c(c2)[nH]c2ccncc23)cn1,"MAPT (Homo sapiens, UniProt P10636)","ligand displacement, radioligand",,,IC50,> 10 µM
O=c1cc(N2CCOCC2)oc2c(OCc3ccccc3)cccc12,"PIK3CB (Homo sapiens, UniProt P42338, E858H)","enzyme activity, inhibitor",,,IC50,0.13 µM
O=C(CC1Cc2ccccc2C1)N[C@H](CN1CCCC1)[C@H](O)c1ccc2c(c1)OCCO2,"UGCG (Canis lupus familiaris, UniProt A0A8I3MXG6)",measured: glucosylceramide,MDCK,24 h,IC50,0.0153 µM
C#Cc1ccc2c(C)c(C)c(=O)oc2c1C,CYP1A1,"enzyme activity, inhibitor, fluorescence",,"6 min, pH 7.6",IC50,0.5 µM and 0.46 µM
COc1cccc(Cn2cc(COC(=O)NC3CCCCC3)nn2)c1,FAAH,"enzyme activity, inhibitor, fluorescence",,cell membranes,IC50,0.158 µM
CN1CCN(C[C@@H]2COc3c(cccc3C(N)=O)O2)CC1,PARP1,,,,IC50,> 5 µM
O=C(O)CC(C(=O)O)[C@@H]1CCN[C@H]1C(=O)O (relative stereo),"AMPA receptor, rat",binding,cortical synaptosomes,added: [3H]-AMPA,IC50,> 100 µM
CCOc1ccc2cc(C3CC(c4ccc(Br)cc4)=NN3C(=O)CCC(=O)O)c(Cl)nc2c1 (stereo not drawn),"RPA1 (Homo sapiens, UniProt P27694)","protein-nucleic acid interaction, inhibitor, mobility shift",,,IC50,12.9 µM
COc1cccc(Cn2cc(CNC(=O)OCc3cn(Cc4ccccc4OC)nn3)nn2)c1,FAAH,"enzyme activity, inhibitor, fluorescence",,cell membranes,IC50,0.0304 µM
CC1=C(COc2ccc(Cl)cc2)C(=O)c2ccccc2C1=O,"TXNRD1 (Homo sapiens, UniProt Q16881)","enzyme activity, inhibitor",,"pH 7.4, with preincubation",IC50,0.7 µM
CC(C)[C@H](NC(=O)[C@@H]1CCCN1C(=O)[C@H](CCCNC(=N)N)NC(=O)[C@H](CS)NC(=O)[C@H](Cc1c[nH]c2ccccc12)NC(=O)[C@H](CCCNC(=N)N)NC(=O)[C@@H](Cc1ccccc1)NC(=O)[C@H](Cc1c[nH]cn1)NC(=O)[C@H](CCC(=O)O)NC(=O)[C@H](CS)NC(=O)[C@H](CS)NC(=O)[C@H](CCCCN)NC(=O)[C@@H]1CC(=O)N[C@@H](CCCNC(=N)N)C(=O)N[C@@H](C)C(=O)N[C@@H](CC(=O)O)C(=O)N[C@H](Cc2ccc(O)cc2)C(=O)N1)C(N)=O [technetium-99m labelled],,,"C57 mice, bladder","iv, 0.037 MBq, 2 h",tissue uptake,65.8 ± 7.08 %ID
CCCCCCCCCCCC[N+](C)(C)CCOc1ccccc1,"Calmodulin-1, with adenylyl cyclase 8 (CALM1, Homo sapiens, UniProt P0DP23)","AC8-calmodulin interaction, NanoBiT complementation",HEK-293T,"30 min pretreatment, added: rat AC8",IC50,6.31 µM
OC(c1cc(C23CC4CC(CC(C4)C2)C3)nc2c(Cl)cc(Cl)cc12)C1CCCCN1 (stereo not drawn),"Ezrin (Ezr, Mus musculus, UniProt P26040)","enzyme activity, inhibitor",,"30 min, 30 °C, added: ezrin (substrate)",IC50,8.3 µM
COc1ccc(C2Oc3c(cccc3C(N)=O)NC2=O)cc1 (stereo not drawn),PARP1,,,,IC50,0.8 ± 0.15 µM
c1nc2c(NCc3cncc(CNCCCNC4CCCCC4)c3)nc(N3CCNCC3)nc2[nH]1,CXCR4,"ligand displacement, radioligand",,cell membranes,IC50,0.0441 µM
O=c1[nH]c2ccccc2n1C1CCN(CCCC(c2ccc(F)cc2)c2ccc(F)cc2)CC1,ABCC1,"efflux, inhibitor, flow cytometry",SupT1 cells overexpressing ABCC1,added: tetramethylrosamine 500 nM,IC50,7.5 ± 2.7 µM
C[C@H]1Oc2cc(cnc2N)-c2c(nn(C)c2C#N)CN(C)C(=O)c2ccc(F)cc21,"SLC29A1 (Homo sapiens, UniProt Q99808)","transporter uptake, inhibitor, radiometric",,,IC50,2.5 µM and ~2.5 µM
COCC(=O)O[C@]1(CCN(C)CCCc2nc3ccccc3[nH]2)CCc2cc(F)ccc2[C@@H]1C(C)C,"CatSper channel complex (Homo sapiens, UniProt Q7RTX7+Q86XQ3+Q8NEC5+Q96P56)","calcium influx, inhibitor",human sperm,"pH 8.2, added: 140 mM K+",IC50,17.4 µM
"CCOC(=O)CC1C(C(=O)OCC)=C(N)Oc2ccc(-c3cc(OC)cc(OC)c3)cc21 (single isomer, unassigned; (+))","ATP2A1 (Oryctolagus cuniculus, UniProt P04191)","ATPase activity, inhibitor, absorbance",,,IC50,68 µM
c1ccc2[nH]c(-c3ccsc3)cc2c1,HEK293 NF-κB luciferase reporter,"reporter gene, measured: NF-κB",,"50 µM, 6 h, added: TNFα",inhibition,35.6 ± 3.1%
O=C(OCc1ccccc1)c1ccc(O)cc1,FAAH,"enzyme activity, inhibitor, fluorimetric",,"5 min preincubation, recombinant enzyme, added: OMP substrate 50 µM",IC50,0.14 ± 0.03 µM
N#Cc1c(-c2ccc([N+](=O)[O-])cc2)cc(-c2ccc(NC(=O)CSc3nc4ccccc4c(=O)n3-c3ccccc3)cc2)nc1N,PARP1,"enzyme activity, inhibitor, absorbance",,,IC50,0.402 µM
O=C(O)c1cc(Br)c2ccc(Br)cc2c1,Grin1/Grin2a,"ion current, two-electrode voltage clamp",,oocytes,IC50,19.3 µM
C#Cc1ccc2cc(-c3ccccc3)c(=O)oc2c1,CYP1A1,"enzyme activity, inhibitor, fluorescence",,"6 min, pH 7.6",IC50,0.63 µM
CCCN1CCC(c2cccc(S(C)(=O)=O)c2)CC1,"Cytochrome P450 2D6 (CYP2D6, Homo sapiens, UniProt P10635)","enzyme activity, inhibitor","human, liver microsomes","2 h, pH 7.4, with preincubation",IC50,5.5 µM
O=C(Nc1ccc(Sc2ccc(N=Nc3c(O)c(S(=O)(=O)O)cc4cc(S(=O)(=O)O)ccc34)cc2)cc1)c1ccc(N=Nc2c(O)ccc3c(S(=O)(=O)O)cc(S(=O)(=O)O)cc23)cc1,"DNA topoisomerase 1 (topA, Escherichia coli, UniProt P06612)","enzyme activity, inhibitor",,,IC50,~2.2 µM
O=C(NCc1ccc(F)cc1)C1CCN(S(=O)(=O)c2cc(Cl)cc(Cl)c2)CC1,"Na(+)/citrate cotransporter (Homo sapiens, UniProt Q86YT5)","citrate uptake, inhibitor",HepG2,"30 min uptake, no preincubation, added: 10 mM LiCl",IC50,~0.5 µM
O=c1[nH]c2ccccc2n1C1CCN(CCCC(c2ccc(F)cc2)c2ccc(F)cc2)CC1,"USP2 (Homo sapiens, UniProt O75604)",,,,IC50,> 114 µM
CC(=O)n1c(=S)[nH]c2ccccc21,"mbtI (Mycobacterium tuberculosis, UniProt P9WFX1)","enzyme activity, inhibitor, continuous fluorescence",,added: chorismate,IC50,9.2 ± 0.9 µM
O=C(O)c1cc2c(C(F)(F)F)cc(-c3ccccc3)cc2n1O,"LDHB (Homo sapiens, UniProt P07195)","inhibitor, NADH fluorescence",,"pyruvate competition, added: 150 µM NADH, 200 µM pyruvate",IC50,> 200 µM
c1nc2c(NCC3CCC(CNCCCNC4CCCCC4)CC3)nc(N3CCNCC3)nc2[nH]1 (stereo not drawn),CXCR4,"β-arrestin-2 recruitment, antagonist, luciferase complementation",MDA-MB-231,"20 min, added: 200 ng/mL CXCL12-α",IC50,0.09 µM
CC(C)Oc1c(Cl)cc(Cl)cc1CN[C@H]1CCCN(c2nc3nc(Cl)ccc3[nH]2)C1,"Methionyl-tRNA synthetase, putative (Trypanosoma brucei brucei, UniProt Q38C91)","enzyme activity, inhibitor",,,IC50,> 0.3 µM
Cn1nc2c3c(cccc31)C(=O)c1ccccc1-2,"PSMB5 (Homo sapiens, UniProt P28074)",enzyme activity,,"added: Suc-LLVY-AMC substrate, ATP",IC50,> 30 µM
CN1CCC2(CC1)c1ccccc1N(Cc1ccc(C(=O)NO)s1)C2c1ccc(Cl)cc1 (stereo not drawn),"Histone deacetylase 8 (Schistosoma mansoni, UniProt A5H660)","enzyme activity, inhibitor, Fluor-de-Lys",,"varied substrate concentration, added: Fluor-de-Lys substrate 50 µM",IC50,0.11 ± 0.011 µM
CC(C)CCn1c(CN2CCN(C(=O)c3ccco3)CC2)nc2c1c(=O)n(C)c(=O)n2C,"ALDH1A2 (Homo sapiens, UniProt O94788)","enzyme activity, inhibitor",,added: propionaldehyde,IC50,> 100 µM
CC(C)(C)NCCCNC(=O)c1cccc(Br)c1,"Lethal(3)malignant brain tumor-like protein 3 (Homo sapiens, UniProt Q96JM7)","methyllysine binding, inhibitor, AlphaScreen",,,IC50,> 500 µM

# For quick reference, copied from above:
Molecule,target or system,test,test system,setting,quantity,result
COCC(=O)O[C@]1(CCN(C)CCCc2nc3ccccc3[nH]2)CCc2cc(F)ccc2[C@@H]1C(C)C,"CatSper channel complex (Homo sapiens, UniProt Q7RTX7+Q86XQ3+Q8NEC5+Q96P56)","calcium influx, inhibitor",human sperm,"pH 8.2, added: 140 mM K+",IC50,17.4 µM
COc1ccc(C2Oc3c(cccc3C(N)=O)NC2=O)cc1 (stereo not drawn),PARP1,,,,IC50,0.8 ± 0.15 µM
c1nc2c(NCc3cncc(CNCCCNC4CCCCC4)c3)nc(N3CCNCC3)nc2[nH]1,CXCR4,"ligand displacement, radioligand",,cell membranes,IC50,0.0441 µM
O=C(Nc1ccc(Sc2ccc(N=Nc3c(O)c(S(=O)(=O)O)cc4cc(S(=O)(=O)O)ccc34)cc2)cc1)c1ccc(N=Nc2c(O)ccc3c(S(=O)(=O)O)cc(S(=O)(=O)O)cc23)cc1,"DNA topoisomerase 1 (topA, Escherichia coli, UniProt P06612)","enzyme activity, inhibitor",,,IC50,~2.2 µM
